Results of several laboratories.
Numbered parts are unrelated; each lists some results of a single study. Positions count from the first letter of the parent shown.

Block 1
Target: tungstate, free oxyanion
Technique: microfluidic competitive inhibition
Medium: in vitro, cell-free expressed
Tested at: not given
Setting: derived from inhibition constants, unchanged parent 2230 nM
Direction: lower = stronger binding
Endpoint: oxyanion analog dissociation constant
Starting sequence: PafA, mature enzyme, eGFP fusion (Elizabethkingia meningoseptica, UniProt Q9KJX5); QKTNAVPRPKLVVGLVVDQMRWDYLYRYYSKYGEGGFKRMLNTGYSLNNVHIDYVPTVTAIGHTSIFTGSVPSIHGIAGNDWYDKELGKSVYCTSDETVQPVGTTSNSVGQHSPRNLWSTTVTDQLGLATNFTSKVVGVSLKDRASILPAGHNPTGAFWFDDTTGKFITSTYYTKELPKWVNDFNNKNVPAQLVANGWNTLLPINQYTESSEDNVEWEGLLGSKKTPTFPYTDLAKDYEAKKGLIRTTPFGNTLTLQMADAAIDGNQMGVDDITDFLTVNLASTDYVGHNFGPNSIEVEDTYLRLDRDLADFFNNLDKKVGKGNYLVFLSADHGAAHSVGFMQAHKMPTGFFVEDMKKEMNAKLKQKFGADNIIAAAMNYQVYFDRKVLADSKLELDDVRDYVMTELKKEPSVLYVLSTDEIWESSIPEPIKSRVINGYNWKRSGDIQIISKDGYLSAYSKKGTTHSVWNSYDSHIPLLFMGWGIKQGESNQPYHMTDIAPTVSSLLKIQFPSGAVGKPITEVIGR
E299V: 2.19 µM
W441G: 1.44 µM
W82V: 4.4 µM

Block 2
Target: CCND1, cyclin fold, Cln2 fusion (human)
Technique: yeast growth competition, sequencing
Medium: yeast
Setting: weak parent motif
Reference: not given
Direction: higher = stronger binding
Endpoint: normalised enrichment score
Starting sequence: viral docking peptide; TSVRRALFTGGSD
R5C: 0.19
F8L: 0.147
R4S: 0.791
L7S: -0.0155
S12K: -0.225
S2D: 0.264
R5F: 0.0332
S12F: 0.171
G11C: 0.55
S12H: 0.316
S12R: 0.487
S2I: 0.0648
S2Y: 0.594
S2T: 0.619
S12N: 0.524
F8W: 0.302
S12M: 0.217
A6Y: -0.0982
S2N: 0.487
R4T: 0.386
T9Y: 0.706
A6H: 0.594
G11H: 0.267
A6C: 0.581
F8A: 0.0485

Block 3
Target: Protein C-ets-1 (ETS1, Homo sapiens, UniProt P14921, residues 1-441, K379A, full length assumed)
Technique: protein-binding microarray
Form: double-stranded DNA, one strand shown
Medium: in vitro
Tested at: not given
Setting: k-mer, scored over probes, only values ≥0.25
Direction: higher = stronger binding
Endpoint: E-score
Residues (chain): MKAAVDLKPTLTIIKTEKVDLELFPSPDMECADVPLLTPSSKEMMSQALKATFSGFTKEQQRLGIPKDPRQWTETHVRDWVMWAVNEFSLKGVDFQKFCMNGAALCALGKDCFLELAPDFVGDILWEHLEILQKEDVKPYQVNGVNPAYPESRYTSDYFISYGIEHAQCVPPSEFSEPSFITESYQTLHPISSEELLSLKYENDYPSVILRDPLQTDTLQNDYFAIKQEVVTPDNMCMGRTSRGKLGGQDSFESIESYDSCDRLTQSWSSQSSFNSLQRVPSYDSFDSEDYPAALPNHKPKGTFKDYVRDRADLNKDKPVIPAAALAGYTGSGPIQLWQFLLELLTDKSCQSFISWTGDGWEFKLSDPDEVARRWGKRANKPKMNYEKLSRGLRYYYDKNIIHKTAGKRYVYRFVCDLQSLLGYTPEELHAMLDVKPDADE
AGGAGGGG: 0.315
GTTGTCTA: 0.252
GGAAACAC: 0.282
CGCCGGAA: 0.376
CTATACAG: 0.255
CCGACGGC: 0.325
ACGGATAT: 0.292
GCGGTATA: 0.268

Block 4
Partner: ARF4 660-788 (Arabidopsis thaliana, UniProt Q9ZTX9)
Technique: two-hybrid
Reference: out of 4 tests
Direction: higher = firmer interaction
Endpoint: positive tests
B1: IAA34 (Arabidopsis thaliana, UniProt Q9C5X0); chain MYCSDPPHPLHLVASDKQQKDHKLILSWKKPTMDSDPLGVFPNSPKYHPYYSQTTEFGGVIDLGLSLRTIQHEIYHSSGQRYCSNEGYRRKWGYVKVTMDGLVVGRKVCVLDHGSYSTLAHQLEDMFGMQSVSGLRLFQMESEFCLVYRDEEGLWRNAGDVPWNEFIESVERLRITRRNDAVLPF
B2: ARF1 538-665 (Arabidopsis thaliana, UniProt Q8L7G0); chain SRQIRSCTKVHMQGSAVGRAIDLTRSECYEDLFKKLEEMFDIKGELLESTKKWQVVYTDDEDDMMMVGDDPWNEFCGMVRKIFIYTPEEVKKLSPKNKLAVNARMQLKADAEENGNTEGRSSSMAGSR
B3: ARF2 727-859 (Arabidopsis thaliana, UniProt Q94JM3); chain TKTNSSRSCTKVHKQGIALGRSVDLSKFQNYEELVAELDRLFEFNGELMAPKKDWLIVYTDEENDMMLVGDDPWQEFCCMVRKIFIYTKEEVRKMNPGTLSCRSEEEAVVGEGSDAKDAKSASNPSLSSAGNS
B4: IAA33 (Arabidopsis thaliana, UniProt Q9FKM7); chain MNSFEPQSQDSLQRRFHQDNSTTQQPRDTTTPFIPKPASKNHNNSNSSSGAAGRSFQGFGLNVEDDLVSSVVPPVTVVLEGRSICQRISLDKHGSYQSLASALRQMFVDGADSTDDLDLSNAIPGHLIAYEDMENDLLLAGDLTWKDFVRVAKRIRILPVKGNTRQVKRNE
B5: IAA32 (Arabidopsis thaliana, UniProt Q8RYC6); chain MDPNTPADFFKGSSKFHTYYSQTKKGGGVIDLGLSLRTIQHETYLPPARMIGLDGYGELIDWSQPSYNSITQLKSEDTGHQRLAQGYYNNEGESRGKYAYVKVNLDGLVVGRKVCLVDQGAYATLALQLNDMFGMQTVSGLRLFQTESEFSLVYRDREGIWRNVGDVPWKEFVESVDRMRIARRNDALLPF
Target sequence (chain): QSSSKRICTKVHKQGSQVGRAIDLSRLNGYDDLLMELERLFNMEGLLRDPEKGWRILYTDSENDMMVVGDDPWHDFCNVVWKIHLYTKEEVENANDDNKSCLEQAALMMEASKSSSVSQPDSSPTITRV
B1 (IAA34): 2
B2 (ARF1 538-665): 0
B3 (ARF2 727-859): 1
B4 (IAA33): 1
B5 (IAA32): 0

Block 5
Target: RING finger protein unkempt homolog, zinc fingers 1-6, GST-SBP tag (UNK, Homo sapiens, UniProt Q9C0B0, residues 30-357)
Technique: RNA Bind-n-Seq
Form: RNA
Medium: in vitro
Tested at: not given
Setting: RNA with constant flanks, ends assumed
Reference: input RNA pool
Direction: higher = stronger binding
Endpoint: bound/input enrichment
Constant ends, left off below: GGGAGUUCUACAGUCCGACGAUC … CAACAGAGGAUUGAGCAUCA
Construct (chain): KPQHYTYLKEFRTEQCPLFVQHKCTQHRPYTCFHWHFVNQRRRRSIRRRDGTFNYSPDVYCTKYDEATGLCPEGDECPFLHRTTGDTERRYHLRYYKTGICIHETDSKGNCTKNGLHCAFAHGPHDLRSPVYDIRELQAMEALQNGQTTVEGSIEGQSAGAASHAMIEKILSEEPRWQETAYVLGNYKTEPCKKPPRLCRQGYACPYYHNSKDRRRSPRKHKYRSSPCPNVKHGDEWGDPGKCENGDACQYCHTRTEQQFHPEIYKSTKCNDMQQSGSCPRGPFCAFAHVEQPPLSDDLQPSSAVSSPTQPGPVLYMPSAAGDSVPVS
UGAAAAAGCCUUGAAUAUGCAUGCUGCUUUCAUUUUUAUAAACUUUUUAUUUUUUAACUACCGCUUUAUUAGUAAUUCCAAAAUGCUGCAAUGUAGCUGAUUUCCUCACUCAGACAGCUG: 23.1 ratio
CAAGGCAUCUGUCCUGAAAGCUGCUAAUCUAUGGUCUAGUGAAUUUAUAUUAUAUGCAGACCGUAAUGAACUGGGAGAUCAAUGAACAGCAAGGGUGAUACCACAUUGCAAAAUGGAAGC: 0.313 ratio
AUAACAAUUGAUGUUUGUUUUCUGUUUGAUUUUAAACAGAGAAAAAAUAAAAGGGGGUAACCGCUCCUUUUUUCUUCUUUCUUUUUUUUUUUCAUUUCAAAAUUGCUGCCAGUGUUUUCA: 0.556 ratio
AUUUGCUGUCUUUAGAGGCCACGGCUUCAUUUCUAUGCGUAAAAAGCUCAUUUAGCAAUGCCGUUAUUUCAGUAUUUAUUUCUAUUAUGGAAUCCCUGGGGUUCGGAAUGUAACUUUGUA: 0.59 ratio
GCUCUUGCAUAUGGAAUCUAUAAGCAGGAUCUUCCUGCCUUAGAAGAGAAACCAAGAAAUGCCGUUUUUGUAGACAUGGGCCACUCUGCUUAUCAAGUUUCUGUAUGUGCAUUUAAUAGA: 0.278 ratio
GGCUAGCCCCAGACCCAAAGAAUAAGAGAUAGCGAAGUUACUACAGACGUGGUCAGGGACAUCCGAAGGAGGCAGACUGCUACAGUCAGAGGCCAGGCAGUACAUCUCAGAGACAAGCUG: 0.34 ratio
AGCCACUUCAACCACUGAUGGUCAUUAAAACUCCUUUUUCACUAACUGAACCAGCAGGUCUCCGGGCUGGAGACAGCAUUUGAUCAUAGUGGACGUUGUUACAAAGACACACUGAGUCUA: 0.106 ratio
UUUCACAGAGGCUGACCACCUUACACUGCUGGGUGGUCACAACUGCUCACCAUGUGAACACCGUACCUCAGUUCUGUCCUUGGCUGCAAUCGUUGUGUGCUCAGUGUUUUCUCAUAGGCA: 0.0933 ratio

Single results of other studies
Cl.Nc1c2c(nc3ccccc13)CCCC2.O
GFP signal (Vesicular stomatitis virus; pseudovirus infection; concentration not given, VSV-G control pseudotype): 121%

A few entries again (block 2):
S2T: 0.619
S12N: 0.524
F8W: 0.302
S12M: 0.217
A6Y: -0.0982
